{"data": "Published values pooled from the literature", "target": "Carbonic anhydrase 12 (CA12, Homo sapiens, UniProt O43570)", "UniProt O43570, sequence (whole entry, looked up)": "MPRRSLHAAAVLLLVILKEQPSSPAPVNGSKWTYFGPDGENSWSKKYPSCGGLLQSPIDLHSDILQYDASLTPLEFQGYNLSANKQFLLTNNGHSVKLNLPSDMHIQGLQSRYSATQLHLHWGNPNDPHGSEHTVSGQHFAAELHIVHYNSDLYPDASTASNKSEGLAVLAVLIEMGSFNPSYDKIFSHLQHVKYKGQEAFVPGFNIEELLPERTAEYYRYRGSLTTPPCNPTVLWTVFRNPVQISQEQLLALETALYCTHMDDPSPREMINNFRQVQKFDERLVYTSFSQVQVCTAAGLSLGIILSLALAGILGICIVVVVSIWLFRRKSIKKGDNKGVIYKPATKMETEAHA"}
{"SMILES": "C/C(=N\\NC(=O)CSc1nc2ccccc2c(=O)n1CCc1ccc(S(N)(=O)=O)cc1)c1ccccc1", "action": "inhibitor", "method": "stopped-flow", "reference": "Ki hCA I over Ki hCA XII", "selectivity ratio": 9.79}
{"SMILES": "COc1cc(-c2ccnc3nc(Nc4ccc(S(N)(=O)=O)cc4)nn23)cc(OC)c1OC", "method": "stopped-flow CO2 hydrase", "reference": "Ki hCA I over Ki CA12", "selectivity ratio": 38.6}
{"SMILES": "NS(=O)(=O)c1c(F)c(F)c(S(=O)(=O)CCc2ccccc2)c(NC2CCCCCCCCCCC2)c1F", "method": "thermal shift", "reference": "Kd CA II over Kd CA XII", "selectivity ratio": 11}
{"SMILES": "COCCOc1cc2ncnc(Nc3cccc(-c4cn(CCc5ccc(S(N)(=O)=O)cc5)nn4)c3)c2cc1OCCOC", "reference": "Ki hCA II over Ki hCA XII", "selectivity ratio": 0.05}
{"SMILES": "CCOC(=O)CSc1nc2ccccc2c(=O)n1CCc1ccc(S(N)(=O)=O)cc1", "action": "inhibitor", "method": "stopped-flow", "reference": "Ki hCA II over Ki hCA XII", "selectivity ratio": 0.6}
{"SMILES": "NS(=O)(=O)c1c(F)c(F)c([S+]([O-])CCO)c(F)c1NC1CCCCCCC1 (stereo not drawn)", "method": "thermal shift", "reference": "Kd CA XII over Kd CA II", "selectivity ratio": 0.1}
{"SMILES": "NS(=O)(=O)c1ccc(CCn2c(SCC(=O)N/N=C/c3ccccc3O)nc3ccccc3c2=O)cc1", "action": "inhibitor", "method": "stopped-flow", "reference": "Ki hCA I over Ki hCA XII", "selectivity ratio": 13}
{"SMILES": "CC(C)(C)Nc1c(F)c(S(N)(=O)=O)c(F)c(F)c1S(=O)(=O)CCc1ccccc1", "method": "thermal shift", "reference": "Kd CA XII over Kd CA II", "selectivity ratio": 39}
{"SMILES": "NS(=O)(=O)c1ccc(Nc2nc3nccc(-c4ccc5ccccc5c4)n3n2)cc1", "method": "stopped-flow CO2 hydrase", "reference": "Ki hCA IV over Ki CA12", "selectivity ratio": 131}
